Published values pooled from the literature.
Protocols differ between the studies behind these lines. Numbers after ± are the reported error.

With COC(=O)[C@H]1[C@H]2C[C@H]3O[C@@]4(CCN3C[C@H]2C[C@@H](OC(=O)c2cc(OC)c(OC)c(OC)c2)[C@@H]1OC)C(=O)Nc1cc(OC)c(-c2ccccc2)cc14 the IC50 was 31.9 µM (SU-DHL-4; cell growth or viability, trypan blue; 72 h).
c1n[nH]cc1-c1nc2ccc3[nH]ncc3c2c2c1CCCC2 gave an IC50 of 0.0402 µM (Molm13 resistant FLT3-ITD D835Y; cell growth; 72 h).
Cc1cc(C)c([N+]#[C][Pt-]([Cl])([Cl])=[C](Nc2cccc(CN[C](NC(C)(C)C)=[Au][Cl])c2)Nc2c(C)cc(C)cc2C)c(C)c1 gave an IC50 of over 100 µM (OVCAR-3; cell growth or viability).
For [N-]=[N+]=NCCc1cc(CN(Cc2ccccn2)Cc2ccccn2)c(O)c(CN(Cc2ccccn2)Cc2ccccn2)c1, the IC50 was over 100 µM (CHO-K1; cytotoxicity; 72 h).
CCC(C(=O)O)C1CCC(C)C(C(C)C(O)C(C)C(=O)C(CC)C2OC3(C=CC(NCc4cn(C56CC7CC(CC(C7)C5)C6)nn4)C4(CCC(C)(C5CCC(O)(CC)C(C)O5)O4)O3)C(C)CC2C)O1 (centres unmarked) has an IC50 of 0.03 ± 0.002 µM (HMLER CD24low/CD44high; cell proliferation; 72 h).
With CN1CCN(C(=O)c2ccc(-c3ccc4[nH]c5ncc(/C=C/c6ccccc6)cc5c4c3)cc2)CC1 the IC50 was 1.1 µM (parental Ba/F3 (IL-3 dependent); cell proliferation, [3H]-thymidine incorporation).
CC(C)c1cccc(C(C)C)c1-n1c(Cl)c(Cl)n(-c2c(C(C)C)cccc2C(C)C)c1=[Se].[Cl][Ag] gave an IC50 of 0.6 µM (PSN1; cell growth or viability, MTT; 72 h).
For [Cl][Cu-][c]1n(-c2c(C(c3ccccc3)c3ccccc3)cc(C(c3ccccc3)c3ccccc3)cc2C(c2ccccc2)c2ccccc2)c2c([n+]1-c1c(C(c3ccccc3)c3ccccc3)cc(C(c3ccccc3)c3ccccc3)cc1C(c1ccccc1)c1ccccc1)-c1cccc3cccc-2c13, the IC50 was over 50 µM (PSN1; cell growth or viability, MTT; 72 h).
For CC(C)c1cccc(C(C)C)c1[N+]#[C][Pt-]([Cl])([Cl])=[C](Nc1ccc(CN[C](NC(C)(C)C)=[Au][Cl])cc1)Nc1c(C(C)C)cccc1C(C)C, the IC50 was over 100 µM (OVCAR-3; cell growth or viability).
The IC50 of CC(C)(O)C(O)COc1c2ccoc2cc2oc(=O)ccc12 (single isomer, unassigned; (+)) is reported as over 100 µM (L5178Y; cell growth or viability, MTT; 24 h).
Cc1ccc(C(=O)C2Sc3nnc(-n4nc(C)cc4C)n3NC2c2ccc(Cl)cc2)cc1 (racemic) gave an IC50 of over 100 µM (Z-138; cell growth or viability, imaging; 72 h).
For CC(C)(C)OC(=O)N1CCN(CCNC2=C(Cl)C(=O)c3ccccc3C2=O)CC1, the IC50 was 15.8 µM (HEC-1-A; cell growth or viability, MTT; 48 h).
CC(=O)OC[C@H]1O[C@@H](NC(=O)NC(=O)/C=C/c2ccc(-c3ccccc3)cc2)[C@H](OC(C)=O)[C@@H](OC(C)=O)[C@@H]1OC(C)=O gave an IC50 of 91 µM (L1210; cell growth or viability; 48 h).
The IC50 of Cc1c(C)n(-c2c(C(C)C)cccc2C(C)C)c(=[Se])n1-c1c(C(C)C)cccc1C(C)C.[Cl][Ag] is reported as 11.4 ± 4.6 µM (H157 spheroids; acid phosphatase; 72 h, 3D spheroid).
For CCCC(CCC)C(=O)[O][Pt]([NH2])([NH2])([Cl])([Cl])[O]C(=O)C(Cl)Cl, the IC50 was 1.12 ± 0.2 µM (2008 cisplatin-sensitive; cytotoxicity, MTT; 72 h).
O=c1ccn([C@@H]2O[C@H](CSSC[C@H]3O[C@@H](n4ccc(=O)[nH]c4=O)[C@H](O)[C@@H](F)[C@@H]3O)[C@@H](O)[C@H](F)[C@H]2O)c(=O)[nH]1 has an IC50 of 302 µM (L1210; cell growth or viability).
With COc1ccc(C[C@H]2COC(=O)[C@@H]2Cc2ccc(OCCCCCCCCCC(=O)NO)c(OC)c2)cc1OC the IC50 was over 5 µM (MV4-11; cell growth or viability, CCK-8; 48 h).
With CC(=O)OC[C@H]1O[C@@H](NC(=O)[C@@H](C)Cc2ccc(C(C)C)cc2)[C@H](OC(C)=O)[C@@H](OC(C)=O)[C@@H]1OC(C)=O the IC50 was 103 µM (L1210; cell growth or viability; 48 h).
The IC50 of CNC(=S)SC[C@@H]1C(=O)O[C@H]2[C@H]1CC/C(C)=C/CC[C@@]1(C)O[C@@H]21 is reported as 8.6 µM (KG-1a; cell growth or viability, MTT; 72 h).
The IC50 of Cc1nc(Nc2ncc(C(=O)Nc3c(C)cccc3Cl)s2)cc(N2CCN(CCOC(=O)[C@@H](N)CCC(=O)O)CC2)n1 is reported as 6.07e-05 µM (BV-173; cell growth or viability, MTT; 72 h).
With CC(C)(C)N=[C](NCc1ccc(N)cc1)[AuH][Cl] the IC50 was over 100 µM (OVCAR-3; cell growth or viability).
For C(=C/c1ccccc1)/c1ccccc1, the IC50 was over 500 µM (cord blood CD34+ cells; cell proliferation, CellTiter-Glo; 24 h).
COc1cccc(-c2ccc(Nc3ccc(CN(C)C)cc3)c(OC)c2F)c1 has an IC50 of 527 µM (SNU1; HTRF, item: total Akt).
For O=C(Nc1ncnc2c1ncn2[C@@H]1O[C@H](CO)[C@@H](O)[C@H](F)[C@H]1O)c1ccccc1, the IC50 was at least 200 µM (L1210; cell growth or viability).
CC(C)c1cccc(C(C)C)c1-n1ccn(-c2c(C(C)C)cccc2C(C)C)c1=[Se].[Cl][Au] gave an IC50 of 0.3 ± 0.05 µM (A2780 ADR; MTT; 72 h).
For Cc1nn(-c2ccc(S(=O)(=O)N[C@H](CO)CC(C)C)cc2)c2nn3nnnc3nc12, the IC50 was 1.15 µM (CCD-841CoN; cell growth or viability, MTT; 72 h).
N#Cc1c(-c2ccc(Cl)cc2)cc(-c2cccc3ccccc23)nc1NNC(=O)Cc1ccccc1 has an IC50 of 0.016 µM (RKOp27; cell growth or viability, MTT; 72 h).
The IC50 of COc1cccc2c1C(=O)c1c(O)c3c(c(O)c1C2=O)CC(O)(C(=O)CO)CC3OC1CC(NC(=O)CCC2=C(C)C(=O)C=C(C(C)C)C2=O)C(O)C(C)O1 (centres unmarked) is reported as about 16 µM (H-BM1 bone marrow fibroblasts; cytotoxicity, MTT; 72 h).
For COc1cc(-c2nc3ccc(C(=O)NCCCN(C)C)cc3n2C2CCC2)cc(OC)c1OC, the IC50 was 2.61 µM (293 T-BRE-Luc; reporter gene, inhibitor; 6 h, added: BMP7-induced BMP7 500 ng/mL).
The IC50 of CN(C)C(=S)N(C)N=Cc1ccccc1SSc1ccccc1C=NN(C)C(=S)N(C)C is reported as under 0.4 µM (breast, ovarian, colorectal cancer cells; MTT; 72 h, four cancer cell lines).
For C[C@@H]1Cc2c([nH]c3ccccc23)[C@@H](c2c(F)cc(/C=C/C(=O)O)cc2F)N1C12CC(C1)C2, the IC50 was 0.0004 µM (MCF7; cell growth or viability, ATP luminescence; 6 days).
For CSC(=S)NCc1cccnc1, the IC50 was 5.2 µM (KG-1a; cell growth or viability, MTT; 72 h).
For CC(=O)Oc1ccccc1C(=O)[O][Pt]([NH2])([NH2])([Cl])([Cl])[O]C(=O)CCCc1ccccc1, the IC50 was 0.29 ± 0.11 µM (2008 cisplatin-sensitive; cytotoxicity, MTT; 72 h).
N=C(N/N=C/c1cccs1)N/N=C/c1cccs1 has an IC50 of 50.1 µM (PANC-1; cell growth or viability, crystal violet; 72 h).
Cc1cc(C)c([N+]#[C][Pt-]([Cl])([Cl])=[C](Nc2ccc(CN[C](NC(C)(C)C)=[Au][Cl])cc2)Nc2c(C)cc(C)cc2C)c(C)c1 gave an IC50 of over 100 µM (OVCAR-3; cell growth or viability).
COc1ccc(-c2c(O)oc3c(CC=C(C)C)c(O)cc(O)c3c2=O)cc1 gave an IC50 of 23.3 µg/mL (J774.2; NO release, inhibitor; LPS-stimulated).
Cl.[Cl][Ru-]1[S+]=C(NC2CCCCC2)N[N+]1=Cc1ccc(N(c2ccccc2)c2ccccc2)cc1.c1ccccc1 gave an IC50 of over 100 µM (HeLa S3; cytotoxicity, MTT; 24 h).
With COc1ccc2nc(NC(=O)c3ccc([C@@H](N)c4ccccc4)cc3)sc2c1 the IC50 was 0.029 µM (NCI-H2122; cell growth or viability).
CC(C)c1cccc(C(C)C)c1N1CCN(c2c(C(C)C)cccc2C(C)C)C1=[Se].[Cl][Au] gave an IC50 of 8.3 ± 0.4 µM (H157 spheroids; acid phosphatase; 72 h, 3D spheroid).
For CN1CCN(Cc2cccc(-c3ccc4[nH]c5ncc(/C=C/c6ccccc6)cc5c4c3)c2)CC1, the IC50 was 2.2 µM (parental Ba/F3 (IL-3 dependent); cell proliferation, [3H]-thymidine incorporation).
The IC50 of CC(C)c1ccc(C[C@H](C)C(=O)NC(=O)N[C@@H]2O[C@H](CO)[C@@H](O)[C@H](O)[C@H]2O)cc1 is reported as over 250 µM (L1210; cell growth or viability; 48 h).

Excerpt of the above:
With CC(=O)OC[C@H]1O[C@@H](NC(=O)[C@@H](C)Cc2ccc(C(C)C)cc2)[C@H](OC(C)=O)[C@@H](OC(C)=O)[C@@H]1OC(C)=O the IC50 was 103 µM (L1210; cell growth or viability; 48 h).
The IC50 of CNC(=S)SC[C@@H]1C(=O)O[C@H]2[C@H]1CC/C(C)=C/CC[C@@]1(C)O[C@@H]21 is reported as 8.6 µM (KG-1a; cell growth or viability, MTT; 72 h).
The IC50 of Cc1nc(Nc2ncc(C(=O)Nc3c(C)cccc3Cl)s2)cc(N2CCN(CCOC(=O)[C@@H](N)CCC(=O)O)CC2)n1 is reported as 6.07e-05 µM (BV-173; cell growth or viability, MTT; 72 h).
With CC(C)(C)N=[C](NCc1ccc(N)cc1)[AuH][Cl] the IC50 was over 100 µM (OVCAR-3; cell growth or viability).
